Published values gathered from unrelated publications.
Numbered parts are unrelated; each lists some results of a single study. “And” joins repeats or separate records; there may be more than shown.

Block 1
SMILES: NC/C(=C\F)COc1cc(Cn2c(=S)[nH]c(=O)c3[nH]cnc32)cc(C(F)(F)F)c1
Read-out: enzyme activity
Action: inhibitor
Technique: fluorescence
Quantity: inhibition
AOC3: Amine oxidase [copper-containing] 3 (AOC3, Homo sapiens, UniProt Q16853)
Chain of UniProt Q16853 (whole entry, looked up): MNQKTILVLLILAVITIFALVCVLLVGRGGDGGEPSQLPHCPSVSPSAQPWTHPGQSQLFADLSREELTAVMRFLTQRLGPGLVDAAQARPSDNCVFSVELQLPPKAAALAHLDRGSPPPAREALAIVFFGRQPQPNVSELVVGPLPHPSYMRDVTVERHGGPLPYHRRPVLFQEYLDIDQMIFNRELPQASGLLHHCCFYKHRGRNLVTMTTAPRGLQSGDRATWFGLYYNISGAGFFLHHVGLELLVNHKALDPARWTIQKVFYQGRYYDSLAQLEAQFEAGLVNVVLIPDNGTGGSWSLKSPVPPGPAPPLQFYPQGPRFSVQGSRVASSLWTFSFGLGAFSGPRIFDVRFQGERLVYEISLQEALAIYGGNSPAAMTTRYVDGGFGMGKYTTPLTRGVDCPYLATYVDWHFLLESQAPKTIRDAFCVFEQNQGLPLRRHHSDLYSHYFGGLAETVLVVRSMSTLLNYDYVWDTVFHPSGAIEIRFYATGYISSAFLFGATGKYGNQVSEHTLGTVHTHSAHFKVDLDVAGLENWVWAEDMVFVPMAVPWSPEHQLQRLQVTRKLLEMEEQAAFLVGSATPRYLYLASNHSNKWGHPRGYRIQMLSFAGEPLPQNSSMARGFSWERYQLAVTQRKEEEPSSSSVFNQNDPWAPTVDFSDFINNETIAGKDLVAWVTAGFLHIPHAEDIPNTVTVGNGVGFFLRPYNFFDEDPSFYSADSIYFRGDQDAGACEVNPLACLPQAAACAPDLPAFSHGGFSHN
MPO: Myeloperoxidase (MPO, Homo sapiens, UniProt P05164)
Chain of UniProt P05164 (whole entry, looked up): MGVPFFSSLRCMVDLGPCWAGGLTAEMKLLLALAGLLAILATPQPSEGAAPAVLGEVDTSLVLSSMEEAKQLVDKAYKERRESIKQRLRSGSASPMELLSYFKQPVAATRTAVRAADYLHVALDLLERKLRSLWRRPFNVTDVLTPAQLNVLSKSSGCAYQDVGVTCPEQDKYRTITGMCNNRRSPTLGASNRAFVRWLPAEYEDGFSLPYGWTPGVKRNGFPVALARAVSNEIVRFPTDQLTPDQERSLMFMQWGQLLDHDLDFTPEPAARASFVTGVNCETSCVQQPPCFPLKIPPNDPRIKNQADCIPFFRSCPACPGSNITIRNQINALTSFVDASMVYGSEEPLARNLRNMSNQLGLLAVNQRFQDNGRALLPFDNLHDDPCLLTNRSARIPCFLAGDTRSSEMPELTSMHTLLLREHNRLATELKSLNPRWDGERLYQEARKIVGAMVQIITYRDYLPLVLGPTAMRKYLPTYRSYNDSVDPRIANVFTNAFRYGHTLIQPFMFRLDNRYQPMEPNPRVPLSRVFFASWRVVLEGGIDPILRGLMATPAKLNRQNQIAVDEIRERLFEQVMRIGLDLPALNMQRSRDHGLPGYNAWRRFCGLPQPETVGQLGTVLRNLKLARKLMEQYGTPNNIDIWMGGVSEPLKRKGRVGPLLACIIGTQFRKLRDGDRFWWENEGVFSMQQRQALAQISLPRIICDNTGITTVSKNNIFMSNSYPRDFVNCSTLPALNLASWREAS
AOC3; 3.333 µM: 78.3% and 62% and 66.3%
AOC3; 10 µM: 83.3% and 93.5% and 88.7% and 94.5%
MPO; 6.9 nM: 47.3%
MPO; 15 µM: 100%
MPO; 4.6 nM: 22.7%
MPO; 800 pM: 3.83%
AOC3; 30 µM: 95.1% and 96.4% and 97.7% and 97.5%
MPO; 0.3704 µM: 99.9%

Block 2
SMILES: CCN1/C(=C/C=C2\CCCC(/C=C/C3=[N+](CC)c4ccccc4C3(C)C)=C2NCCCCCCCCN2CCC(Nc3nc4ccccc4n3Cc3ccc(F)cc3)CC2)C(C)(C)c2ccccc21
Cell line: U-87 MG
Concentration: concentration not given
Relative to: DMSO
Quantity: log2 fold change
measured: ZXDA mRNA: 1
measured: TGFA mRNA: -0.917
measured: CIPC mRNA: 0.979
measured: ITGBL1 mRNA: 1.83
measured: CRELD2 mRNA: -0.906
measured: TMEM132B mRNA: 2.17
measured: LPO mRNA: 3.22
measured: MYLK mRNA: -1.98

Block 3
Structure (SMILES): CCN(CC)CC(=O)N1CCN(c2nc(NCc3nc4cc(Cl)c(Cl)cc4[nH]3)c3ncn(CC)c3n2)CC1
Read-out: cell viability
Technique: CellCounting-Lite
Temperature: 37 °C
Reading: higher = more viable cells
Quantity: luminescence signal
MDA-MB-468; 0.1221 nM: 64500 a.u. and 64600 a.u. and 54900 a.u.
MDA-MB-468; 500 nM: 13500 a.u. and 14000 a.u. and 12700 a.u.
MDA-MB-468; 125 nM: 11500 a.u. and 11200 a.u.
MDA-MB-468; 0.007629 nM: 183000 a.u. and 205000 a.u. and 176000 a.u.
MDA-MB-468; 1.953 nM: 16600 a.u. and 17700 a.u.
MDA-MB-231; 31.25 nM: 5410 a.u. and 6060 a.u. and 6520 a.u.
MDA-MB-231; 0.4883 nM: 236000 a.u. and 206000 a.u. and 189000 a.u.
MDA-MB-468; 7.812 nM: 9870 a.u. and 8930 a.u. and 9300 a.u.

Mixed results
Cn1cc(-c2cccc(CN3CCC4(CC3)COc3c4ccc4c3CN([C@H]3CCC(=O)NC3=O)C4=O)c2)cn1  IL-2 level (Jurkat; 100 nM, 24 h, with: CD3/CD28 beads, 1:4): 162 pg/mL and 160 pg/mL and 156 pg/mL

Repeated from above (block 2):
measured: TGFA mRNA: -0.917
measured: CIPC mRNA: 0.979
measured: ITGBL1 mRNA: 1.83
